Results of several laboratories.
Every numbered part comes from another study and shows a few of its results, in no order. “And” joins repeats or separate records; there may be more than shown.
UniProt Q9UKE5, sequence (whole entry, looked up): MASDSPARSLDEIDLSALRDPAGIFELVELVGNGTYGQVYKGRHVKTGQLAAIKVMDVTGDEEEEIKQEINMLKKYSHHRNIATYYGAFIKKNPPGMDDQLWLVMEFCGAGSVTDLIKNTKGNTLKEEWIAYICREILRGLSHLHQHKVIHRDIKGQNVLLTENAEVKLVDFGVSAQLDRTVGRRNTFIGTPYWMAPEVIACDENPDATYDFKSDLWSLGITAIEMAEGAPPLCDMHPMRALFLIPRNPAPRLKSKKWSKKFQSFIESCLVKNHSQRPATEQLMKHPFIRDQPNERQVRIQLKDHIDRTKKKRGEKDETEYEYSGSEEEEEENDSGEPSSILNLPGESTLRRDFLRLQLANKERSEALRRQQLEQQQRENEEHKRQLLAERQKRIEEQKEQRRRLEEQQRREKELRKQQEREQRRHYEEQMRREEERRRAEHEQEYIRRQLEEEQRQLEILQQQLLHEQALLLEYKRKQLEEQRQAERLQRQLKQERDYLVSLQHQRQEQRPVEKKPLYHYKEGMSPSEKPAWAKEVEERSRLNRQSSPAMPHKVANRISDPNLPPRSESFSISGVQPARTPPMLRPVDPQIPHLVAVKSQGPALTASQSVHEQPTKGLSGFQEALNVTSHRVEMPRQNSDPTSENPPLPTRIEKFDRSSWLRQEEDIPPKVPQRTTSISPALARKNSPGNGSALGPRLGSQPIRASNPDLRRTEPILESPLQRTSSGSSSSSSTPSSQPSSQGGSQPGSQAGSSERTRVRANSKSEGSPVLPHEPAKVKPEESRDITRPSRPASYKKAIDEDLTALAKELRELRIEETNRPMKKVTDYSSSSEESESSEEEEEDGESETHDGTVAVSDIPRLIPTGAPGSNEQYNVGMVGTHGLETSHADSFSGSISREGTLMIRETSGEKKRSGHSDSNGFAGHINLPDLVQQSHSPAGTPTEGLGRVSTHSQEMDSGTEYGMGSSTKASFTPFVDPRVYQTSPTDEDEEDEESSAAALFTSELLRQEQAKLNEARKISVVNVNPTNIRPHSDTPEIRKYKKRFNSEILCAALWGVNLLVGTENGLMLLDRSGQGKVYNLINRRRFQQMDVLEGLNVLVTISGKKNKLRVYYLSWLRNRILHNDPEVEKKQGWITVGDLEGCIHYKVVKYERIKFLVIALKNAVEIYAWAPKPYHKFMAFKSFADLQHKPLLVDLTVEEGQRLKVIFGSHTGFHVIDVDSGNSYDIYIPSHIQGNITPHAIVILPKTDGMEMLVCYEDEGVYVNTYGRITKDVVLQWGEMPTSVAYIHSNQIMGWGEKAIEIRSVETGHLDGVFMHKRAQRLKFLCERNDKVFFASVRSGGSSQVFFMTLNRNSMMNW
UniProt Q96RG2, sequence (whole entry, looked up): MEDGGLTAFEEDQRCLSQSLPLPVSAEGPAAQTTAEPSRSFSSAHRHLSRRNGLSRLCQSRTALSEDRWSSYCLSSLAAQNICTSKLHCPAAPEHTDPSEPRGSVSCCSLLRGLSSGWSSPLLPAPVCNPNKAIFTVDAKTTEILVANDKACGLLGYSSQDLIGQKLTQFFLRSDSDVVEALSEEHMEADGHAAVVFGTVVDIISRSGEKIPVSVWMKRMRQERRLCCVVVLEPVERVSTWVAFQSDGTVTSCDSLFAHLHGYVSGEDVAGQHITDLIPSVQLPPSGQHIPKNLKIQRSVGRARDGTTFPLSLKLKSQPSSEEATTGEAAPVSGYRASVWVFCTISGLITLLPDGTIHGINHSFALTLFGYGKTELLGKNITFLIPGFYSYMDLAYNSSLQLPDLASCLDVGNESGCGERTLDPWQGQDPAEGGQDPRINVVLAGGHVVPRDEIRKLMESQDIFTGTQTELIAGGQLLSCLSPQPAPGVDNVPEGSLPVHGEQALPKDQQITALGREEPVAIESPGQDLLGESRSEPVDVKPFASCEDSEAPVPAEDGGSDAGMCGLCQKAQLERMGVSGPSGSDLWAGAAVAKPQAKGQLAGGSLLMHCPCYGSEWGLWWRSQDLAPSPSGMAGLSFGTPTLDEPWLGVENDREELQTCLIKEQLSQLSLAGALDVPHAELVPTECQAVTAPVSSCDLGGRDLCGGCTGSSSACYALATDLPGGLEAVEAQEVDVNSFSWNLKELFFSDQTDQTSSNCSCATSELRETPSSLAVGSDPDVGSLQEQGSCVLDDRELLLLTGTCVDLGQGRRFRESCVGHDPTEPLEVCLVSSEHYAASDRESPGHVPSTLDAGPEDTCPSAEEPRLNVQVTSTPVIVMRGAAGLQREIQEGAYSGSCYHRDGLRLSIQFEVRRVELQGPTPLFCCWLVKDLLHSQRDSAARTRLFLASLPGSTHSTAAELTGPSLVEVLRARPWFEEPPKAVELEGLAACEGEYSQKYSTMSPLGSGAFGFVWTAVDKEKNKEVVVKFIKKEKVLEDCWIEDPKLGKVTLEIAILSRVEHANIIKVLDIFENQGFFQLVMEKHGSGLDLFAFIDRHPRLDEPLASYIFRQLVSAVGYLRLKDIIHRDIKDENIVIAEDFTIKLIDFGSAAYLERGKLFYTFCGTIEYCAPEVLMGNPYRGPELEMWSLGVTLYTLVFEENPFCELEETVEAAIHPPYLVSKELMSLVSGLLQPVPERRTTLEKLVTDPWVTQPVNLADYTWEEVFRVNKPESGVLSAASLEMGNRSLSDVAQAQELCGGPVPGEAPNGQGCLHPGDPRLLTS
UniProt Q13555, sequence (whole entry, looked up): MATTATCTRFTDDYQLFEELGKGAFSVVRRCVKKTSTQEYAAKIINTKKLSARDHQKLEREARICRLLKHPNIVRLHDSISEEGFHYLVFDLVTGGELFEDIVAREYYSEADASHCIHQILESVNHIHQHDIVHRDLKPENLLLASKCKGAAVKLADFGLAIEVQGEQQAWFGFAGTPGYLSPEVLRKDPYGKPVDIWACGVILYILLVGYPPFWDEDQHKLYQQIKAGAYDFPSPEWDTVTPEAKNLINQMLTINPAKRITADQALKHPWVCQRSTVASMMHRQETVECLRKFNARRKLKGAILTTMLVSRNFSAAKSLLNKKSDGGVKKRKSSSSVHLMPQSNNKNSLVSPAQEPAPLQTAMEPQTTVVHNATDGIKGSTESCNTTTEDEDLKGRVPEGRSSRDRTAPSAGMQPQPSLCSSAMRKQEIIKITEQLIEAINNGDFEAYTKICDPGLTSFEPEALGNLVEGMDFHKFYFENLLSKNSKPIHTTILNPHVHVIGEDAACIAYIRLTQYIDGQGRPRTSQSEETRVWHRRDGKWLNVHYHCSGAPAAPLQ
UniProt Q99640, sequence (whole entry, looked up): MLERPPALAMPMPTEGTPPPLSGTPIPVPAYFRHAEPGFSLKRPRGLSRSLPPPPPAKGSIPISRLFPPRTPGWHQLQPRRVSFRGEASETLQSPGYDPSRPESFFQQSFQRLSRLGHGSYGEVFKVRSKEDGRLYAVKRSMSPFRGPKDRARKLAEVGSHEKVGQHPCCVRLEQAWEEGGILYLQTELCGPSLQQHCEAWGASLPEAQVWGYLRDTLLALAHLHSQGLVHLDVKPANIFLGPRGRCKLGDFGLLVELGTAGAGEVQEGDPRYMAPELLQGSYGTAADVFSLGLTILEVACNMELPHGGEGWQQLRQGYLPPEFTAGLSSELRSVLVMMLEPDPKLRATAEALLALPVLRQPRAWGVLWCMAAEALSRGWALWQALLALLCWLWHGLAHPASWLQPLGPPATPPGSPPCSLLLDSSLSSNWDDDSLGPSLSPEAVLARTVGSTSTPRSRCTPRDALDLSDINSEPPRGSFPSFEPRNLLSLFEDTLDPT
UniProt P35968, sequence (whole entry, looked up): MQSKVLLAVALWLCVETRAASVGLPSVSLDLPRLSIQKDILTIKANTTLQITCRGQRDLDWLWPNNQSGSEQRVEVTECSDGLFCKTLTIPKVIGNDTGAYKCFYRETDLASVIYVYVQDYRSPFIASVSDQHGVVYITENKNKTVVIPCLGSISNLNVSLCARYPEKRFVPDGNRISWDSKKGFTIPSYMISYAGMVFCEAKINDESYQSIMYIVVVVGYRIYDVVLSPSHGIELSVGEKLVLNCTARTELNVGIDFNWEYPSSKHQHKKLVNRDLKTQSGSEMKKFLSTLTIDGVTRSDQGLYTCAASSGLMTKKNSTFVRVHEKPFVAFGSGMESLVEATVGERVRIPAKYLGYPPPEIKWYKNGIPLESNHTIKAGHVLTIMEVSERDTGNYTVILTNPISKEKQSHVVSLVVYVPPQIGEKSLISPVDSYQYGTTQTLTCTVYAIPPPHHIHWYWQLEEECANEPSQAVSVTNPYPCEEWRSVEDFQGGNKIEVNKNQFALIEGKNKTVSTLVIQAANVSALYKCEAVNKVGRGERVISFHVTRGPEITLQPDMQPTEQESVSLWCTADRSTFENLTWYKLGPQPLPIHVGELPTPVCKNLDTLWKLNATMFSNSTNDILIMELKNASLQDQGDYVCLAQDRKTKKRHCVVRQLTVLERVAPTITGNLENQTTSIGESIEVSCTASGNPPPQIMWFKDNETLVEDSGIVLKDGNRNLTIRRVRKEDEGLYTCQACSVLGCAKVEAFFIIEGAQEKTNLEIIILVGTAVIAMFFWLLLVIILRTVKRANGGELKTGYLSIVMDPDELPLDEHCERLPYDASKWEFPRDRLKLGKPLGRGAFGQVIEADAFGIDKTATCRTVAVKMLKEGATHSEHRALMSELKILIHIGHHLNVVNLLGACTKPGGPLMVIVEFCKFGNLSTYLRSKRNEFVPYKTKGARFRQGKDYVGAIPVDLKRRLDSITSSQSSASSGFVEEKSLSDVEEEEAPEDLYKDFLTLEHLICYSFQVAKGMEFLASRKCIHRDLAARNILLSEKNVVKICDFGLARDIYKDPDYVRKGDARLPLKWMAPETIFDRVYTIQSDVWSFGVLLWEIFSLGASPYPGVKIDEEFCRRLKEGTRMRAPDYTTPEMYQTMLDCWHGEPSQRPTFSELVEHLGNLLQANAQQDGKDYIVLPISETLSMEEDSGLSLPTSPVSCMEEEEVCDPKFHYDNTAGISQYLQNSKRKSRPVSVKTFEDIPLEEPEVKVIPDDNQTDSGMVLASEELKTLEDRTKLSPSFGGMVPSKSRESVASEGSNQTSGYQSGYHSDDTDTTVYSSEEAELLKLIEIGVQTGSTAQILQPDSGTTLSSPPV

Series 1 — organism: Sarcocystis neurona; effect on: parasite growth; tested at: 10 µM; time: 96 h
Compound	inhibition [%]
CC(Oc1c(Cl)cccc1Cl)C1=NCCN1 (stereo not shown)	0.5
O=C(O)CCc1nc(-c2ccccc2)c(-c2ccccc2)o1	-14
Oc1ccc(/C=C/c2cc(O)cc(O)c2)cc1	-12.7
C#C[C@]1(OC(C)=O)CC[C@H]2[C@@H]3CCC4=CC(=O)CC[C@@H]4[C@H]3CC[C@@]21C	-10.4
O=C1C(CC[S+]([O-])c2ccccc2)C(=O)N(c2ccccc2)N1c1ccccc1 (stereo not shown)	-16.4
COc1ccc(-c2oc3c(CC=C(C)C)c(O[C@@H]4O[C@H](CO)[C@@H](O)[C@H](O)[C@H]4O)cc(O)c3c(=O)c2O[C@@H]2O[C@@H](C)[C@H](O)[C@@H](O)[C@H]2O)cc1	-7.7
C[C@H](CCC(=O)O)[C@H]1CC[C@H]2[C@@H]3C(=O)C[C@@H]4CC(=O)CC[C@]4(C)[C@H]3CC(=O)[C@]12C	-12.1
CN(C)CCC=C1c2ccccc2COc2ccccc21	-5.3

Series 2 — host: C57BL/6 CES1-/- mice, EL4 tumour; sample: EL4 tumour; route: subcutaneous; dose: 0.3 mg/kg/day DON equivalent; time: 5 days
Compound: CC(=O)N[C@@H](Cc1c[nH]c2ccccc12)C(=O)N[C@@H](CCC(=O)C=[N+]=[N-])C(=O)OC(C)C
method	item	notes	direction	metabolite peak intensity
UPLC-MS/MS metabolomics	gamma-glutamyltyrosine	normalised to tissue mass		711000 a.u. and 901000 a.u. and 244000 a.u. and 745000 a.u. and 529000 a.u. and 500000 a.u.
LC-MS/MS metabolomics	2-hydroxy-3-methylvalerate	normalised to tissue mass	higher = more metabolite	33600 a.u. and 74200 a.u. and 85900 a.u. and 95100 a.u. and 31800 a.u. and 103000 a.u.
LC-MS/MS metabolomics	2,3-dihydroxy-2-methylbutyrate	normalised to tissue mass	higher = more metabolite	630000 a.u. and 592000 a.u. and 1.95e+06 a.u. and 1.35e+06 a.u. and 2.59e+06 a.u. and 1.56e+06 a.u.
LC-MS/MS metabolomics	3-methylcytidine	normalised to tissue mass	higher = more metabolite	1.23e+06 a.u. and 950000 a.u. and 1.68e+06 a.u. and 1.46e+06 a.u. and 860000 a.u. and 946000 a.u.
UPLC-MS/MS	5,6-dihydrouridine			88400 a.u. and 64400 a.u. and 70100 a.u. and 72600 a.u. and 76400 a.u. and 108000 a.u.
LC-MS/MS metabolomics	phenyllactate		higher = more metabolite	111000 a.u. and 235000 a.u. and 67000 a.u. and 81000 a.u. and 101000 a.u. and 119000 a.u.
LC-MS/MS metabolomics	3'-dephospho-CoA-glutathione	normalised to tissue mass	higher = more metabolite	69700 a.u. and 72900 a.u. and 110000 a.u. and 88300 a.u. and 141000 a.u. and 129000 a.u.
UPLC-MS/MS metabolomics	N-acetylglutamate	normalised to tissue mass	higher = more metabolite	7.08e+07 a.u. and 6.73e+07 a.u. and 5.15e+07 a.u. and 4.6e+07 a.u. and 5.45e+07 a.u. and 5.93e+07 a.u.

Series 3 — effect on: enzyme activity; tested at: 5 µM; baseline: untreated control
SMILES: O=C(Nc1cnn(-c2csc(C(=O)NC3COC3)c2)c1)Nc1c(F)cccc1Cl
target	remaining activity [%]
KIT (Homo sapiens, UniProt P10721)	93.9
CHEK2 (Homo sapiens, UniProt O96017)	89.8
TNIK (Homo sapiens, UniProt Q9UKE5)	83.1
KDR (Homo sapiens, UniProt P35968)	87.5
PKMYT1 (Homo sapiens, UniProt Q99640)	89.2
TSSK3 (Homo sapiens, UniProt Q96PN8)	96.7
MAP2K6 (Homo sapiens, UniProt P52564)	85
PASK (Homo sapiens, UniProt Q96RG2)	93.3

Other studies, line by line
Compound	target	effect on	method	tested at	quantity	value
Cn1cncc1[C@](O)(COc1ccc(C#N)cc1-c1ccc(OC(F)(F)F)cc1)c1ccc(C#N)cc1	Calcium/calmodulin-dependent protein kinase type II subunit gamma (CAMK2G, Homo sapiens, UniProt Q13555)	cell-free assay	competition with immobilised ligand	1 µM	remaining binding	94%

Excerpt of the above (series 2):
method	item	notes	direction	metabolite peak intensity
LC-MS/MS metabolomics	2,3-dihydroxy-2-methylbutyrate	normalised to tissue mass	higher = more metabolite	630000 a.u. and 592000 a.u. and 1.95e+06 a.u. and 1.35e+06 a.u. and 2.59e+06 a.u. and 1.56e+06 a.u.
